Assay results gathered from unrelated publications.
Every numbered part comes from another study and shows a few of its results, in no order. Changes are numbered by the printed parent chain.

Set 1 — target: CCNA2, cyclin fold, Cln2 fusion (human); technique: yeast growth competition, sequencing; medium: yeast; notes: strong parent motif; baseline: not given; reading: higher = stronger binding
Parent: DTL docking peptide (human); PSSMRKICTYFHR
| Variant | normalised enrichment score |
| --- | --- |
| P1A | 1.55 |
| R5A | 1.4 |
| S3A | 1.23 |
| Y10A | 1.5 |
| M4A | 1.65 |
| R13A | 1.74 |
| H12A | 1.29 |

Set 2 — technique: protein-binding microarray; molecule type: double-stranded DNA, one strand shown; medium: in vitro; concentration: 250 nM; notes: 60-bp whole probe; together with: salmon DNA 0.4 mg/ml; baseline: random background probes; reading: higher = stronger binding; shared flanks, not repeated: GCCTAGCAC … GTCTTGATTCGCTTGACGCTGCTG
Target: Interferon regulatory factor 7, full length, phosphomimetic (IRF7, Homo sapiens, UniProt Q92985, residues 1-503, S101K/S471D/S472D/S475D/S476D/S477D/S483D/S484D/S487D)
Construct (chain): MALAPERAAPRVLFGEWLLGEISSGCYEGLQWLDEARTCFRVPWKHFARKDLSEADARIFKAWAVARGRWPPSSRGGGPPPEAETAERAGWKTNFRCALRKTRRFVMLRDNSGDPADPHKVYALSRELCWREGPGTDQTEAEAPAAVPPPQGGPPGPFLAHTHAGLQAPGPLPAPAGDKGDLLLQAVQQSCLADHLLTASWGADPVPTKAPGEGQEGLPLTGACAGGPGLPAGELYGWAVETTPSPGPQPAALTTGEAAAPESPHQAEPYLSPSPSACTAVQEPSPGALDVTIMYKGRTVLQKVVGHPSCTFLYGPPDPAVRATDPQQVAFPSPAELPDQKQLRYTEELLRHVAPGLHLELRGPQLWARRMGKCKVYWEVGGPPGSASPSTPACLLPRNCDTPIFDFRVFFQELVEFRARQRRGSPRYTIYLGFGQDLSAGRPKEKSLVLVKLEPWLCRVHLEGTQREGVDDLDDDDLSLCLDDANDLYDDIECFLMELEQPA
| Sequence | log fluorescence [z-score] |
| --- | --- |
| GACAGTTTCCTACTGCTGACGTGCTAG | 1.58 |
| TTAAGTCTCCTTTTCCTTTAGTGCTAG | 2.1 |
| TTAGGTATCCTTTTCATTTAGTGCTAG | 1.47 |
| TTAGAACTGGGGTATCGAATAGTGCTA | -0.311 |
| TCACTTATTAAGATTGTGACTGTGCTA | 0.312 |
| GAAGGTTTCGGTTCCGGGACGTGCTAG | 12.3 |
| GTCAGTTTTGAGCTCTGTCTGTGCTAG | 0.196 |
| TTAGGTCTCGGAGTGGGTTAGTGCTAG | 0.105 |
| CCTTCCATCACTTTCCACTTGTGCTAG | 1.5 |
| GACGATTTCAGTATTGAGACGTGCTAG | 0.286 |
| TTAGGTATCCCACTGCTTTAGTGCTAG | -0.172 |
| TTAGGACTGGGTCTCGGGTAGTGCTAG | 0.0598 |
| TATCAGCAAACTTTTCTTGAGTGCTAG | -0.109 |
| TTAGGACTGCTTCTCCTTGAGTGCTAG | 0.421 |
| GACGGTATGCTTATCCTGACGTGCTAG | -0.71 |
| TTAGAACTGGGCTTTCGATTAGTGCTA | -0.147 |
| GACGATTTCAATTCCGAGACGTGCTAG | 0.357 |
| GACGTTATCGGGTATCGGGACGTGCTA | 0.000916 |
| TTAGGTCTCCATATCCTTTAGTGCTAG | 0.687 |
| TTAGATTCCAGTTTCCATTAGTGCTAG | 5.07 |

Set 3 — technique: aptamer microarray, sandwich; molecule type: DNA with 2'F-ANA; medium: in vitro; concentration: 200 nM; together with: Cy3 exosite-II aptamer, 400 nM; reading: higher = stronger binding; sequence: GGTTGGTGTGGTTGG
Target: Prothrombin, mature alpha-thrombin (F2, Homo sapiens, UniProt P00734)
Notes: whole 15-mer aptamer, many near background
| Modification | mean fluorescence intensity |
| --- | --- |
| 2'F-ANA at 2 4 6 7 10 13 15 | 72.5 a.u. |
| 2'F-ANA at 1 2 4 5 6 7 8 11 13 14 15 | 60.5 a.u. |
| 2'F-ANA at 1 3 4 7 8 9 12 13 14 15 | 89.7 a.u. |
| 2'F-ANA at 2 4 5 8 9 13 | 54.6 a.u. |
| 2'F-ANA at 1 2 3 7 12 | 458 a.u. |
| 2'F-ANA at 1 3 5 10 12 13 14 15 | 44.4 a.u. |
| 2'F-ANA at 1 2 3 4 8 9 10 12 15 | 167 a.u. |
| 2'F-ANA at 1 2 3 5 7 13 14 | 46.8 a.u. |
| 2'F-ANA at 3 5 8 9 15 | 145 a.u. |
| 2'F-ANA at 5 6 7 8 9 10 12 13 15 | 71.5 a.u. |
| 2'F-ANA at 2 8 9 10 13 14 | 82.5 a.u. |
| 2'F-ANA at 2 4 6 7 8 10 12 13 14 15 | 64.3 a.u. |
| 2'F-ANA at 1 2 3 4 6 8 10 11 12 14 15 | 93.9 a.u. |
| 2'F-ANA at 2 3 7 9 12 13 | 957 a.u. |
| 2'F-ANA at 1 2 3 6 7 11 12 13 15 | 273 a.u. |
| 2'F-ANA at 1 4 5 8 12 13 14 15 | 43.2 a.u. |
| 2'F-ANA at 3 5 9 10 15 | 66.6 a.u. |
| 2'F-ANA at 1 3 4 10 12 13 | 67.1 a.u. |
| 2'F-ANA at 3 7 10 | 602 a.u. |
| 2'F-ANA at 3 7 8 10 15 | 655 a.u. |

Set 4 — technique: RNA Bind-n-Seq; molecule type: RNA; medium: in vitro; concentration: 200 nM; notes: whole 134-nt RNA, ends assumed; together with: 150 mM LiCl; baseline: input library; reading: higher = stronger binding; all molecules: 7-deaza-guanosine replaces G
Target: Ras GTPase-activating protein-binding protein 1, full length (G3BP1, Homo sapiens, UniProt Q13283)
Chain of UniProt Q13283 (whole entry, looked up): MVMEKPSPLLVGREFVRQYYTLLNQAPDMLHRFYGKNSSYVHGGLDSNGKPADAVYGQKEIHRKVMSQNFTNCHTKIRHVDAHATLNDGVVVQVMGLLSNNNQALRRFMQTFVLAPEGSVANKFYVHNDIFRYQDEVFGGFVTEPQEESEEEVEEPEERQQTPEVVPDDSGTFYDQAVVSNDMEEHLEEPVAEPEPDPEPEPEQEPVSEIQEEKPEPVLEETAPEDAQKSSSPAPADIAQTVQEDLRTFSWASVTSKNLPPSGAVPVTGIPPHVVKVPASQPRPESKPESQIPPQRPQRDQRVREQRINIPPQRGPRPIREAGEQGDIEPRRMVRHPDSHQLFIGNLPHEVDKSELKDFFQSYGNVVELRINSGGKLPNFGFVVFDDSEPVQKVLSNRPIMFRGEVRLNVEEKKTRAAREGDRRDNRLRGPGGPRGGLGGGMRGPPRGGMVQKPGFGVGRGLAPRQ
Shared flanks, not repeated: GGGAGUUCUACAGUCCGACGAUC … UGGAAUUCUCGGGUGUCAAGG
| Sequence | log2 enrichment |
| --- | --- |
| UAACUUUAGAGGAGGAUCUGAUGGAUAUGGCAGUGGACGUGGAUUUGGGGAUGGCUAUAAUGGGUAUGGAGGAGGACCCGGAGGUGGCAA | -0.255 |
| AGUCCUGUGCUACACAUCGUAUGUACCGAAUCGGAAAAAGGUUUUUGGUUUUUUUGGAAAGUAUUAUGUUACGCCGUUCGGAUCUGCACU | -2.6 |
| CUCAAGUCCUGUGCUACACAUCGUAUGUACCGAAUCGGGAGGGAAAGGGAGGGAAAGUAUUAUGUUACGCCGUUCGGAUCUGCACUUCCA | 0.0611 |
| UCAAGUCCUGUGCUACACAUCGUAUGUACCGAAUCGGAAAGGAAAGGGAAAGGGAAAGUAUUAUGUUACGCCGUUCGGAUCUGCACUUCC | -0.048 |
| UGUGCUACACAUCGUAUGUACCGAAUCGGGGAAAAAAAGGGGAAAAAAAGGGAAAAAAAGGGAAAGUAUUAUGUUACGCCGUUCGGAUCU | 0.39 |
| CUCAAGUCCUGUGCUACACAUCGUAUGUACCGAAUCGGCCGGGCCGGGGCCGGAAAGUAUUAUGUUACGCCGUUCGGAUCUGCACUUCCA | 0.613 |
| GCAGGAAGUAAAAACAAAUGGAAAUGCUUCGGAUAGUGGCAGGGGUGGGGGAAACUAAGGAAAGGGUGGGAUGGGAGUGGGUAAAGAGUU | 0.0351 |
| CUCAAGUCCUGUGCUACACAUCGUAUGUACCGAAUCGGUUUUUUUGGAGGUGGAAAGUAUUAUGUUACGCCGUUCGGAUCUGCACUUCCA | 0.229 |
| AGUCCUGUGCUACACAUCGUAUGUACCGAAUCGGGAAAAAAAGGGUUUUUGGGUGGGAAAGUAUUAUGUUACGCCGUUCGGAUCUGCACU | -1.41 |
| AGUCCUGUGCUACACAUCGUAUGUACCGAAUCGGGGAGGGGUUUUUUUGGGGAGGGGAAAGUAUUAUGUUACGCCGUUCGGAUCUGCACU | 0.535 |
| UAACUUUAGAGGAGGAUCUGAUGGAUAUGGCAGUGGACGUGGAUUUGGGGAUGGCUAUAAUGGGUAUGGAGGAGGACCUGGUGGUGGCAA | -0.152 |

Set 5 — technique: RNA Bind-n-Seq; molecule type: RNA; medium: in vitro; concentration: 365 nM; baseline: no-protein control; reading: higher = stronger binding
Target: RNA binding protein fox-1 homolog 2, RRM domain, GST-SBP tag (RBFOX2, Homo sapiens, UniProt O43251-10, residues 100-194)
Notes: natural RNA segment, single round, ends assumed
Shared flanks, not repeated: GGGAGUUCUACAGUCCGACGAUC … UGGAAUUCUCGGGUGCCAA
Target sequence (chain): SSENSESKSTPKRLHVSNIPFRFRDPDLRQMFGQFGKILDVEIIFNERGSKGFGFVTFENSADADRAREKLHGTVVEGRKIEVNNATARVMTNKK
| Sequence | RBNS enrichment (R) |
| --- | --- |
| CACCUGUGAGACCAAAUUGAGCUAGGGGGGUCAGCCAGCCCUCUUCUGACACUAAAACACCUCAGCUGCCUCCCCAGCUCUAUCCCAACCUCUCCCAACUAUAAAACUAG | 0.805 |
| CGCACAGAUAAGUCCAGAAAGCCAGGGAGUAUGAGUCCCCAGGUCGCCAGGGCAUAACCAAAUAGAAAUAGUCAGUGGUGUGGAAAUCCGAUGUAAGAUGUAAUAGAUAA | 1.11 |
| AGUGUGCUGUUCUCAGCCUAAGAUGCAGCAGCAGCUCUUCCCACACACGCCCCCAGGUCUCCAGGGUAGAAAUCUUUCCAACAGUAGGAACCUAGAGUUAGUCAGGAGUA | 0.361 |
| GGAUAGGAGUCUAGAUAUUUACCUGAUACUAAUCAGGAAAUAUAUGAUAUCCGUAUUUAAAAUGUAGUUAGUUAUAUUUAAUGACCUCAUUCCUAAGUUCCUUUUUCGUU | 0.311 |
| GAGGAGACCCUGUGUUUUCAGUGGAAUCAGAUCUUCCUCAGUUGGGGCCUUCCUUGUCCCCCCGUGGACUCUCCAAUGUGGGACCUCGGUCCUGGGCUCUCACCGGGGUC | 0.282 |
| UUGGUCACAUGAGUCUGUCUCCUUACUUUAGUCCCUGGGCAAUCCUUGCUUAAUGCUUUUGUUGACUCAACAAGGGCCCGAGGCCUUAGGUUUUCUAUUAAGGUCUCUGC | 0.213 |
| AAGGUGGCCAUCUGGGGUGAGUCGAUACUGCCCUCUGCUGGUUGUUUCUAGUUCAAGCCCACAGCCAGCAACAAGCAACAAAGUGUCUUAGAAUAGGACUGGUUUUGUUU | 0.586 |
| UAAUUGCUAUUUACUAUUUAAAAAGUUUUACUGAAAUCAGUCCAUAACAUUAAGAUGAGCCCUAAUAUGUAAGAUUUUCCUCUGGAAUGGAUGUGAGAAAUGUAAAUUUU | 0.761 |
| GGUUAAUGGUAACUUGUUGUUCUCCUGAUCUAACUGAGUACCACCUUUGGUGUUAAGUGUCAUUGUUUAGUUUACCCUCUGUUCUCUAUGUUGUCCUAACAAGCCAACCC | 0.303 |
| CCAACUACCUUCACAGCACCCAGUGAUCAAGGUGAUGACGGUUGAGAACCUGAAAGUGCAUACUGAGUUGAGUGUUCAGGCUGCUGUCCUUGGUCUCUCUGCAGUUCUGG | 0.756 |
| AUUUUGAUGCCUUUGAAAUGAUGAAGGGAUUCUACCUGUAUUUUUACUCUUAGAACAGAUACAACUUUAAAGGGUGUCACAACCAAAGGUGGAGUGGAGUGUGGCAUGCA | 3.22 |
| GGGGCAUGUGCUGCCUGUUGUUAUGGGUUUUUUUUGCGGGGGGGGUUGCUUUUUUCUGGGGUCUUUGAGCUCCAAAAAAUAAACACUUCCUUUGAGGGAGAGCACACCUG | 0.716 |

A few entries again (set 5):
| Sequence | RBNS enrichment (R) |
| --- | --- |
| CACCUGUGAGACCAAAUUGAGCUAGGGGGGUCAGCCAGCCCUCUUCUGACACUAAAACACCUCAGCUGCCUCCCCAGCUCUAUCCCAACCUCUCCCAACUAUAAAACUAG | 0.805 |
| CGCACAGAUAAGUCCAGAAAGCCAGGGAGUAUGAGUCCCCAGGUCGCCAGGGCAUAACCAAAUAGAAAUAGUCAGUGGUGUGGAAAUCCGAUGUAAGAUGUAAUAGAUAA | 1.11 |
| AGUGUGCUGUUCUCAGCCUAAGAUGCAGCAGCAGCUCUUCCCACACACGCCCCCAGGUCUCCAGGGUAGAAAUCUUUCCAACAGUAGGAACCUAGAGUUAGUCAGGAGUA | 0.361 |
| GGAUAGGAGUCUAGAUAUUUACCUGAUACUAAUCAGGAAAUAUAUGAUAUCCGUAUUUAAAAUGUAGUUAGUUAUAUUUAAUGACCUCAUUCCUAAGUUCCUUUUUCGUU | 0.311 |
| GAGGAGACCCUGUGUUUUCAGUGGAAUCAGAUCUUCCUCAGUUGGGGCCUUCCUUGUCCCCCCGUGGACUCUCCAAUGUGGGACCUCGGUCCUGGGCUCUCACCGGGGUC | 0.282 |
| UUGGUCACAUGAGUCUGUCUCCUUACUUUAGUCCCUGGGCAAUCCUUGCUUAAUGCUUUUGUUGACUCAACAAGGGCCCGAGGCCUUAGGUUUUCUAUUAAGGUCUCUGC | 0.213 |
| AAGGUGGCCAUCUGGGGUGAGUCGAUACUGCCCUCUGCUGGUUGUUUCUAGUUCAAGCCCACAGCCAGCAACAAGCAACAAAGUGUCUUAGAAUAGGACUGGUUUUGUUU | 0.586 |
| UAAUUGCUAUUUACUAUUUAAAAAGUUUUACUGAAAUCAGUCCAUAACAUUAAGAUGAGCCCUAAUAUGUAAGAUUUUCCUCUGGAAUGGAUGUGAGAAAUGUAAAUUUU | 0.761 |
| GGUUAAUGGUAACUUGUUGUUCUCCUGAUCUAACUGAGUACCACCUUUGGUGUUAAGUGUCAUUGUUUAGUUUACCCUCUGUUCUCUAUGUUGUCCUAACAAGCCAACCC | 0.303 |
